Measurements collected from several papers.
Parts stem from different laboratories: compare values within a part only.

Study 1
Target: Interferon regulatory factor 5, full length, phosphomimetic (IRF5, Homo sapiens, UniProt Q13568-2, residues 1-514, K96S/S451D/S453D/S456D/S462D)
Technique: protein-binding microarray
Form: double-stranded DNA, one strand shown
Sample: in vitro
Concentration: 250 nM
Setting: 60-bp whole probe
Together with: salmon DNA 0.4 mg/ml
Baseline: random background probes
Reading: higher = stronger binding
Constant ends, left off below: GCCTAGCAC … GTCTTGATTCGCTTGACGCTGCTG
Strand | log fluorescence [z-score]
TTAGGTCTCGGACTGCGTTAGTGCTAG | -0.233
TTAGGTCTCGGTTTCGGTAAGTGCTAG | 7.38
ACATATTTGTTTCCATTTTCGTGCTAG | 2.65
GACGATATCGGGTATCGACACGTGCTA | 2.95
GACGGTCTCAGTCTCGGGACGTGCTAG | -0.126
GACGGTTTCAGGACTGGGGACGTGCTA | 0.885

Study 2
Target: Histone acetyltransferase KAT6A, both winged helices, GST fusion (KAT6A, Homo sapiens, UniProt Q92794, residues 1-181)
Technique: protein binding microarray
Form: double-stranded DNA, one strand shown
Sample: in vitro
Concentration: not given
Setting: 8-mer, flanks averaged, mean of 2 arrays, mostly near background
Baseline: not given
Reading: higher = stronger binding
Target sequence (chain): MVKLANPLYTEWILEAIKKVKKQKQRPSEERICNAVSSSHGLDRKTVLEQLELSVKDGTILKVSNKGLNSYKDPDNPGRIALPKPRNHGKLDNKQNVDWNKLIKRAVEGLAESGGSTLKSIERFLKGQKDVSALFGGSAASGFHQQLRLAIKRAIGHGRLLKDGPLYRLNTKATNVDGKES
Strand | E-score
TAAACCGA | 0.0689
AGCAAGGA | -0.252
AAGTTCGT | 0.0278
CTTCTTTC | -0.247

Study 3
Target: RNA binding protein fox-1 homolog 2, RRM domain, GST-SBP tag (RBFOX2, Homo sapiens, UniProt O43251-10, residues 100-194)
Technique: RNA Bind-n-Seq
Form: RNA
Sample: in vitro
Concentration: 365 nM
Setting: natural RNA segment, single round, ends assumed
Baseline: no-protein control
Reading: higher = stronger binding
Target sequence (chain): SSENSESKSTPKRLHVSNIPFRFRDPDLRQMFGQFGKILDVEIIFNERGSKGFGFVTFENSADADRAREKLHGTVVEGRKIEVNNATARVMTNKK
Strand | RBNS enrichment (R)
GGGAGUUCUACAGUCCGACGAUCUCCAGGAGAGCAGAUGUGAAGGACCUGCACCAGGAUGGUGGUUAGCAACAGUGGCCCGUGCCAAAGCACUUACCAAAGUGAUGAUGACUAAGGCCCUGUCAUUAAUUCCAUGGAAUUCUCGGGUGCCAA | 0.302
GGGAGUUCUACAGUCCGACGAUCCUGUGGUAUGUGUGUUCUCACGUGUGUGUGCACAUACACACACACACGCAUAUCAAUUAAUUUAAAAAGCGAAUAAAUGUAAAUUAUAAAAAGAGUCCUACCCCCCUCUUUGGAAUUCUCGGGUGCCAA | 0.634
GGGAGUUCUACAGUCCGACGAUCGUAGUUUUGUUAUGAAAGUUCUCUACCACCUACCUGUGUGAGUGACACCAACAUCCAGAUGUCACAGCUCUCCAGAGCUAGUCAGAAGAGAAAUCAAAUUAGUGUUUAAAUGGAAUUCUCGGGUGCCAA | 0.494
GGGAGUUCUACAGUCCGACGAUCCUAUCCCGUGAGUGGAUUGUGAGAAAUUCCACCCACGUGGAGACAGCUUACUGCAGCACUGUUGGUGUUCGGAGCUCUUCUGUGCCCUGGCUCCAUGCUUUCACCUACACUGGAAUUCUCGGGUGCCAA | 0.301
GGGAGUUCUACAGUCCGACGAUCGCGGGAGCAACCACAAUCAAACCUACAGGGCAGGCCCUAGGGUUUGUUAUCCCACGUUCAGGCCAGGAUUAGUACAGAGCUGGUUAAGGCUUUCAUUUCACUUCAGAUUCUGGAAUUCUCGGGUGCCAA | 0.532
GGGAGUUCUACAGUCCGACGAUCUUCUACUUCAGCUCUGGAUGUGGUUACCAAGUAUCUGUAACCCUUGAGCCCCUAGACAGUAUUGCCAUCUCUGGCCAAAUAUGCACUUUCCCUAGAAAGCCAUAUUCCAGUGGAAUUCUCGGGUGCCAA | 0.676
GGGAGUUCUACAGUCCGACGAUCGUUUGAGUUUUACGCAGUAUAUUUUUUCCACAAAACCUGUAAAGAUUUAAGUUAUUUUAAUUUAUUGUGAAUCCGAAAACUAGAUUUAGUUGGUCAGAAUCUGUAAAGUAUGGAAUUCUCGGGUGCCAA | 0.449

Single results of other studies
Substance | target | test | test system | conditions | how to read | endpoint | value
PhoQ, residues 284 288 289 292 302 303 SSTMSV | PhoP, residues 12 14 15 18 19 LHSVQ (Escherichia coli, UniProt P23836) | Sort-seq, measured: YFP reporter | E. coli | PhoQ-PhoP variant library, together with: 10 µM Mg2+ | baseline: high Mg2+ state, higher = stronger signaling | fold induction | 1.26
